Results pooled from the literature.
Every numbered part comes from another study and shows a few of its results, in no order. Changes are numbered by the printed parent chain.

Series 1
Target: RNA binding protein fox-1 homolog 2, RRM domain, GST-SBP tag (RBFOX2, Homo sapiens, UniProt O43251-10, residues 100-194)
Method: RNA Bind-n-Seq
Molecule type: RNA
Matrix: in vitro
Concentration: 365 nM
Notes: natural RNA segment, single round, ends assumed
Reference: no-protein control
Direction: higher = stronger binding
Shared flanks, not repeated: GGGAGUUCUACAGUCCGACGAUC … UGGAAUUCUCGGGUGCCAA
Residues (chain): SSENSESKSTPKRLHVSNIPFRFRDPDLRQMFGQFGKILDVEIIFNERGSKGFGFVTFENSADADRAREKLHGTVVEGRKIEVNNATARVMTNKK
Sequence	RBNS enrichment (R)
CAAGCACAAGUUCUCUAUAUCACUUGUUUUUUGUUGUUGUUGUUGUUGUCGUCGUUGUUUUGAGACGGAGUCUUGCUCAGGUGCCCCGGAGUGCAGUGGUGCAAUCUCAG	3.64
UUUAAAAUUUAACAGCAAUCAGCUAACAGGCAAAUUAAGAUUUUUACUUCUGGCUGGUGACAGUAAAGCUGGAAAAUUAAUUUCAGGGUUUUUUGAGGCUUUUGACACAG	0.407
AUAAAGUUCAAAACCGCUGUCAUGGCCCCAUGUGAUCUCUCCCUCCCCUACCCCUCUAUCAUUUAGUUUCUUCUGCGCAAGCCACUCUGGCUUCCUUUCAGUUUUGUGGU	0.699
CUUGGCUGGUGGGCAGAUGCAAAUAGCUUUUGCUGUUAUUAAUGAAGUAAUUACUAAAUGCACUUAAACCAGGGCAGGAAGGAAUGGAAGGAUGGAGCUAGAAAGCUCAG	0.362
AUAUUGCCCUGUGACUCCAGUAUAUCUCACCUGUACUGACCAAACCUAAAUAAACAUUUUUAUUACGCUCUUGUUUGUUUUUUCCUUUUGUCUUGGGUGUGUUUAGCAAU	0.422
GCAUCUAUGCUCUGUUACAAGUGCCUUAGCAGGAGUCAGCAGCACCCUCCAGGUGCCCCUUGCCACACUGAAUGUGGGAAAGUGUGCUGUGGCUACUUCGUGGUCAGAGU	0.318
GGCAGCGCCUGCUCUUCCUUAACUCAGCCCAUCAUCUGAAAAUUCAGAAGUGAACCAAGGGUUAGACGCCAGAGGUUGGGCUUCUGUUAGAGUGGCUUCAAAACAUGAGC	0.317
AGAAAAAGUAGGUUUGCUGAAAAACAUUACUAAAUGACUUGGAGCUCUCCAGUCAAAGAAACAAAGCUAAUUGAAAUAAUGUACAUUUGGUUCAGUCUGUCAGGCAAGUA	0.71

Series 2
Target: Histone acetyltransferase KAT6A, both winged helices, GST fusion (KAT6A, Homo sapiens, UniProt Q92794, residues 1-181)
Method: protein binding microarray
Molecule type: double-stranded DNA, one strand shown
Matrix: in vitro
Concentration: not given
Notes: 8-mer, flanks averaged, mean of 2 arrays, mostly near background
Reference: not given
Direction: higher = stronger binding
Target sequence (chain): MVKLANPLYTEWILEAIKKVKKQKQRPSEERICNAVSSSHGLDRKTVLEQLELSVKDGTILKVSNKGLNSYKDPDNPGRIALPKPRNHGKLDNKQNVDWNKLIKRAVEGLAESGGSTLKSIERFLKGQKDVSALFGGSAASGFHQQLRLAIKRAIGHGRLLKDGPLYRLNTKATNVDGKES
Sequence	E-score
CGAGGTCA	0.0367
ACCTAGCT	-0.291
GTAAGGCA	-0.218
AAGATCCA	-0.175
AGGGGCGG	0.225
ACTTGTTC	-0.0391
GTGACGGA	0.171
AGATGAGC	-0.0433
CTAGAAAA	0.0289
CCTCCCCG	0.159
GCGTCCTA	0.0717
AAGCATAA	-0.121
ACCACGAC	-0.129
TCATTTAA	-0.198
ACCGAACG	0.144
CAGACCGA	0.0503
CGGTGAAG	0.109
ACTTCGGC	0.0309
ACATATCG	0.0345
CCTCCCCA	-0.0719

Series 3
Target: CCND1, cyclin fold, Cln2 fusion (human)
Method: yeast growth competition, sequencing
Matrix: yeast
Notes: strong parent motif
Reference: not given
Direction: higher = stronger binding
Starting sequence: SCAPER docking peptide (human); SNARRSLNFGGST; partner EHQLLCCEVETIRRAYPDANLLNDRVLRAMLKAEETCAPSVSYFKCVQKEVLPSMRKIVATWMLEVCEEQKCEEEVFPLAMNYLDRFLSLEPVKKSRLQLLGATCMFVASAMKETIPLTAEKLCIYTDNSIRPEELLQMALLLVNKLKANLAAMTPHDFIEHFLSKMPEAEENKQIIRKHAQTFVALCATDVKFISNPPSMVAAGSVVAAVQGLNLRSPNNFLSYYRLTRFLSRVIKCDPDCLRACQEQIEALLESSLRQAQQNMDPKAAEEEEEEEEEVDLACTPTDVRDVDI
Change	normalised enrichment score
G11M	0.294
F9Q	0.0285
G10T	0.944
L7H	0.33
R5Y	0.414
S12Q	0.606
S6A	2.59
A3I	0.339
G11A	1.01
A3N	0.71
T13C	1.2
T13Y	0.653
A3Q	-0.397
N2D	0.333
N8E	0.949
F9S	0.107
N8H	0.955
R4K	0.745
G11P	0.724
S12Y	0.844
S1L	0.409
T13M	0.996
S12P	1.85
F9V	-0.102
S1R	0.142

Series 4
Target: RING finger protein unkempt homolog, zinc fingers 1-6, GST-SBP tag (UNK, Homo sapiens, UniProt Q9C0B0, residues 30-357)
Method: RNA Bind-n-Seq
Molecule type: RNA
Matrix: in vitro
Concentration: not given
Notes: RNA with constant flanks, human-mouse chimeric sites, ends assumed
Reference: input RNA pool
Direction: higher = stronger binding
Shared flanks, not repeated: GGGAGUUCUACAGUCCGACGAUC … CAACAGAGGAUUGAGCAUCA
Target sequence (chain): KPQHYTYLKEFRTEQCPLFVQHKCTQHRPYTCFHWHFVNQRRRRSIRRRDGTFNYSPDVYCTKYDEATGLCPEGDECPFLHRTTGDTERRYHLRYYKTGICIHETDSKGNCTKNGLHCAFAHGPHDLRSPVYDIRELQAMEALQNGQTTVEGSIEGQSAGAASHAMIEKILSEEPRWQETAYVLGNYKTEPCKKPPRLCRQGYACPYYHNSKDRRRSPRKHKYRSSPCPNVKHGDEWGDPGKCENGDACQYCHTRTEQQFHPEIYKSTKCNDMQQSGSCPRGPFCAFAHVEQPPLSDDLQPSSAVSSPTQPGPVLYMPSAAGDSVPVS
Sequence	bound/input enrichment [ratio]
CUGGCACUCUAUCAGAUAGAUUACUUUUUUAAUGUAGAUGUAAUUUUAAAAAUGAAUGGCUACUUUACACGUUUAACUAGGCUCUUACUAUAUAUGUGUACAUAUGUAUAUAUAUAUAUA	13.3
CGGAGCCCUCCUCUCCCACAGGCCCAAGAUAUAACCCACCAGUGCCUUUUGUCUUCCUGUCAGCUCUAAUCAAUCAUCCUGUCCUCUCACGCCCACACCAAGUGCCCAAAGUGGGGAGGG	0.661
UAAGUCCUGUGCCAGCACUUCGCUCAUUAUAUUUUAAAUUCUGGACCAAUAGUGUUUGUUUCCUGAUUAUUGUAUCCAAUACUUUGCCUAGUAUGUAACUCACUCUUACUGAUAAUAAAA	4.94
GUGACUGGUGUUAAGAUUUCCCCUCAGAAAAGAACUGCAGUAGUCACCAUAAUUCCAUCUGUGGUGAAUGCCAAUCAGAUUGUGGAGCUGGUCCCAGACCUCAGUUUAGACAUGGGAACU	0.258
GGCUGCUGGUGACUGUCGGGAGCCGUCUGGAGUUCCCGCCGGAGCGCGGCCAGACUAAUUAUAGAAAAUGCCAAGUAGGAAGUUUGUUGAGGGUGAAGUGGUCAGAGGCCGAUGGCCUGG	2.04
AACUUCGUGCAUCGGUUUCCUUUUGUAGCUGUUUCAAUUGGCUUCCUUGUGAAUAAAGAGAUGGAGUUUGGAAUUGUGUACAGCUGUGUGGAAGAUAAGAUGUACACCGGCAGGAAAGGG	0.487
AAAGAGUGGAUAGAGUGUGCACAUGGAAUCGGUUAUACCCGGGCGAAAAAGGAGUGCAAGAUAGAGUUCGAUGACUUCGAAGAGUGCUUGCUUCGGUACAAAACGAUGAGGCGAAUGCAU	0.571
GCGGCAGAAUCAUGGUGGACAUAAUGCAGCUCCCCAAAGCGCGCGUCAACGCCAGCAUGCUAGCUCAGUAUAUCGACCGGCCCGUGUGCUUCGUGGGGAAGCUGGAAAAGAUUCAUCCCA	0.0997

Series 5
Target: Sal-like protein 4, full length isoform B (SALL4, Homo sapiens, UniProt Q9UJQ4-2, residues 1-616)
Method: universal PBM
Molecule type: double-stranded DNA, one strand shown
Matrix: in vitro
Concentration: not given
Notes: 8-mer, flanks averaged, mean of replicates
Direction: higher = stronger binding
Sequence	E-score
AGGGTCCA	-0.302
GTTTGACA	0.139
GGGAAGCA	-0.0551
CGTGCGAA	-0.0777
ACCGGAGA	-0.111
ATAGGACG	0.0299
ACCTGCTA	0.0202
GGGGTGGA	-0.142
CGCTTGGC	-0.203
AGCTGGAT	-0.119
ATCTTGCC	-0.0614
CCGATATA	0.259
CCTCTCGC	-0.124
AATCATGC	-0.0741
AATCGTAT	0.236
GTTAAAAA	0.228
AGTTCAAG	0.169
CAGGTCGA	-0.179
ACGACGAC	-0.0775
AGAATACT	0.149
AAATGTCG	0.0287
GAAAAGGA	0.00039
GGAACCAC	-0.2
ATTATCTA	0.29
CCGATCAA	-0.0542

Excerpt of the above (series 3):
Change	normalised enrichment score
T13C	1.2
T13Y	0.653
A3Q	-0.397
N2D	0.333
N8E	0.949
F9S	0.107
